Published values collected from several papers.
Each line is one published result; not all experiments were run side by side. Several values in a cell are separate wells, animals, samples, runs or records. Numbers after ± are the reported error.
HSP90AB1: Heat shock protein HSP 90-beta (HSP90AB1, Homo sapiens, UniProt P08238)
Sequence of UniProt P08238 (whole entry, looked up): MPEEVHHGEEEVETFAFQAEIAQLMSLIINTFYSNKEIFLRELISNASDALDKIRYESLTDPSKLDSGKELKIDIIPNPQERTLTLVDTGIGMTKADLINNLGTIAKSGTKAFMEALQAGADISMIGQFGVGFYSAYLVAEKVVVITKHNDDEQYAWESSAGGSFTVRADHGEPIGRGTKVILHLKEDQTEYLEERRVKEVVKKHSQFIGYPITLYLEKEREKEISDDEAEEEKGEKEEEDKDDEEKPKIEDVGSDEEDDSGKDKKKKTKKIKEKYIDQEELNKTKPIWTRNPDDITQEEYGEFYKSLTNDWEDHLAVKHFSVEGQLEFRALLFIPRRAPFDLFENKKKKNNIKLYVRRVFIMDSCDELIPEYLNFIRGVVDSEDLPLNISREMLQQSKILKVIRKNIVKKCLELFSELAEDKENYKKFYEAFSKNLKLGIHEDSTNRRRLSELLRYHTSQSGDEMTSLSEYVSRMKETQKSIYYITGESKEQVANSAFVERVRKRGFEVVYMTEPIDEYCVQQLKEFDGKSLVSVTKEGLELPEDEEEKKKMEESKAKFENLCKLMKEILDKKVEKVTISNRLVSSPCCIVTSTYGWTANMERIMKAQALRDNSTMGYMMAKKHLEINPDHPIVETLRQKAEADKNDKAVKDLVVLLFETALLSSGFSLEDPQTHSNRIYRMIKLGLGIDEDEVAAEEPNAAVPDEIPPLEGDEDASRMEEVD
TNIK: TRAF2 and NCK-interacting protein kinase (TNIK, Homo sapiens, UniProt Q9UKE5)
Sequence of UniProt Q9UNU6 (whole entry, unmodified, looked up): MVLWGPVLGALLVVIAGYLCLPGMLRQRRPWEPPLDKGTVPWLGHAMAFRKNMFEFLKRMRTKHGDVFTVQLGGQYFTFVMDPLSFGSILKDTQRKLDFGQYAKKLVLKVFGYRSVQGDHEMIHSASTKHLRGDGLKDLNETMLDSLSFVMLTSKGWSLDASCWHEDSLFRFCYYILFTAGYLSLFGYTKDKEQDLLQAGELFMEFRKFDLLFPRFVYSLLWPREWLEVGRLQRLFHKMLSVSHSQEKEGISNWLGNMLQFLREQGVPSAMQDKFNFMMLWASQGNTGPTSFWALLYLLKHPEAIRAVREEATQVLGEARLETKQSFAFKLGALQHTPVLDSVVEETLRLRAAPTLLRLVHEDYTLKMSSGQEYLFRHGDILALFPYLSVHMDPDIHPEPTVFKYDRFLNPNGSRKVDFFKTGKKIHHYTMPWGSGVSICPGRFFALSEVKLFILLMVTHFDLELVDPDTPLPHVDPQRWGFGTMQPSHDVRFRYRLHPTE
Sequence of UniProt Q9NNX6 (whole entry, looked up): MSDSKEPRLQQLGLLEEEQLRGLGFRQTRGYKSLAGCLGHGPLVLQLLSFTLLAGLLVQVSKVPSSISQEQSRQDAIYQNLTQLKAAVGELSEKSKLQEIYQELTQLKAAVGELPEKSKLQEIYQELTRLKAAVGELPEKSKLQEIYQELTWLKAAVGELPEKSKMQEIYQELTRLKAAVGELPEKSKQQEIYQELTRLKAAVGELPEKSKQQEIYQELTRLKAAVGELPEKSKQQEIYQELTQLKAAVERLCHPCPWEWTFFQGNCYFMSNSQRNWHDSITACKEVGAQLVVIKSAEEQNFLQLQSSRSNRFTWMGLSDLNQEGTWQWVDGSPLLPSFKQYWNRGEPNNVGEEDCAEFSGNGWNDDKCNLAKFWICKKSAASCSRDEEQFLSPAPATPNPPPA
Sequence of UniProt Q9UKE5 (whole entry, looked up): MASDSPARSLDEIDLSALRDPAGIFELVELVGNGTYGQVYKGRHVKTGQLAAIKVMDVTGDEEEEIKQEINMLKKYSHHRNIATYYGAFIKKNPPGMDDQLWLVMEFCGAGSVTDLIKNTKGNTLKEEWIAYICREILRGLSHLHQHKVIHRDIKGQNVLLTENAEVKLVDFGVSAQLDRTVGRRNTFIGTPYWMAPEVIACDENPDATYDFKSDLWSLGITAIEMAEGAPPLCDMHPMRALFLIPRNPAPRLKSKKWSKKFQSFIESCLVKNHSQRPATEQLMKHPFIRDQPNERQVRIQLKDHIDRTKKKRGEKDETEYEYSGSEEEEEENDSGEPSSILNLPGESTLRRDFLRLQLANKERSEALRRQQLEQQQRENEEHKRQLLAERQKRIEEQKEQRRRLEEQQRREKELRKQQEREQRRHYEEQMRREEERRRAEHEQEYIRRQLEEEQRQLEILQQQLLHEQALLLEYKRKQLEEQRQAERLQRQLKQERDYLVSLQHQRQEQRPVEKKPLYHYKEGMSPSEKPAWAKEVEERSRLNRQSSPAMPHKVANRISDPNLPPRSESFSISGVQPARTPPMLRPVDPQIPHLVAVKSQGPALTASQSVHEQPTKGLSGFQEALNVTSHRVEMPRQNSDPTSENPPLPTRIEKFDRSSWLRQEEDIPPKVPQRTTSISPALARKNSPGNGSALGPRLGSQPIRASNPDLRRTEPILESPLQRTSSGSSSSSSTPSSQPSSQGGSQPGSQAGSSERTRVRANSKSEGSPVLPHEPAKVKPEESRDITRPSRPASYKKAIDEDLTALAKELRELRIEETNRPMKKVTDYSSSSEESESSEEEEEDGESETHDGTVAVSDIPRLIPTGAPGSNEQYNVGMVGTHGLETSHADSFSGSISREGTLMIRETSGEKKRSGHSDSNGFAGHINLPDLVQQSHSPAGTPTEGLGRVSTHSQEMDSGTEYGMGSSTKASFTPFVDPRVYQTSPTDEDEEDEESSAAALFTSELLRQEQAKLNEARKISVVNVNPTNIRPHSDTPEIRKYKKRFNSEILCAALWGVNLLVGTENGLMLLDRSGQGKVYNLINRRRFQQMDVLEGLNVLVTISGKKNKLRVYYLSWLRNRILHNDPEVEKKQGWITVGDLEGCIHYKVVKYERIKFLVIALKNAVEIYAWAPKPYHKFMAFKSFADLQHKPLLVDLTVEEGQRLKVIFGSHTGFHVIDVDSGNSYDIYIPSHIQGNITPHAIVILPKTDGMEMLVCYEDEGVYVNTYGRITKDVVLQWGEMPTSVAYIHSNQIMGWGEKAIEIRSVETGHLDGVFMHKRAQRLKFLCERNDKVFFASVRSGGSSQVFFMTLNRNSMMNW
Sequence of UniProt Q08460 (whole entry, looked up): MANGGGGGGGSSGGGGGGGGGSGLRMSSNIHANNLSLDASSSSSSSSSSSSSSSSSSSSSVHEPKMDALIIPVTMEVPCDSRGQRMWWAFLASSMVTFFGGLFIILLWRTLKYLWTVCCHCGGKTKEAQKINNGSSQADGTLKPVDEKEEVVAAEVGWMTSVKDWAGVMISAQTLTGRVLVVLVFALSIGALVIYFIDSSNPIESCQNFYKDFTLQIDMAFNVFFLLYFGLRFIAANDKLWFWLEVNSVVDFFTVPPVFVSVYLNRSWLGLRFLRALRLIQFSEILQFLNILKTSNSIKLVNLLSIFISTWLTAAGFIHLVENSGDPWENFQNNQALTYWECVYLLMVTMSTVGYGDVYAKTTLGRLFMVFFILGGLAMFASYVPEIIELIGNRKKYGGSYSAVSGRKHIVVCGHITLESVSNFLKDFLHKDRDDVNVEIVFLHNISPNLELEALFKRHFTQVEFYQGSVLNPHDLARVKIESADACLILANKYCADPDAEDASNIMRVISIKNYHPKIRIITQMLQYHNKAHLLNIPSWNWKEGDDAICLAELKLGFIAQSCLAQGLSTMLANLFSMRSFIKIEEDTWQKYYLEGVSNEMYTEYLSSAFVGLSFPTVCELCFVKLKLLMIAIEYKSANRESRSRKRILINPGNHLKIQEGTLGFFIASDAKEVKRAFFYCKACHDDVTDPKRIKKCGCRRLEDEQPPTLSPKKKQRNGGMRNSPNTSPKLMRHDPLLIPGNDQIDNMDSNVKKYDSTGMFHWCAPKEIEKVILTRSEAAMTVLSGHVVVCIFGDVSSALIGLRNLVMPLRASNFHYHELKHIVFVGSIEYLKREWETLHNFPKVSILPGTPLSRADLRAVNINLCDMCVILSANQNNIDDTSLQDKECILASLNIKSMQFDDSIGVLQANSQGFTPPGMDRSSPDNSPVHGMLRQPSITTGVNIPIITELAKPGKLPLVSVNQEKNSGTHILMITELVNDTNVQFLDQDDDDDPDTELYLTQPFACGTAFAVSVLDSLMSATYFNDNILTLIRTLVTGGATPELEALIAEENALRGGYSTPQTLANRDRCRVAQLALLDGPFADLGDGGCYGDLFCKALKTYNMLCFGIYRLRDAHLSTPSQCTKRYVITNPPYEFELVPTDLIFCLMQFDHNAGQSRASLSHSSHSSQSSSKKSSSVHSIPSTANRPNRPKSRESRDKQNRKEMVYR
Sequence of UniProt Q9HB29 (whole entry, looked up): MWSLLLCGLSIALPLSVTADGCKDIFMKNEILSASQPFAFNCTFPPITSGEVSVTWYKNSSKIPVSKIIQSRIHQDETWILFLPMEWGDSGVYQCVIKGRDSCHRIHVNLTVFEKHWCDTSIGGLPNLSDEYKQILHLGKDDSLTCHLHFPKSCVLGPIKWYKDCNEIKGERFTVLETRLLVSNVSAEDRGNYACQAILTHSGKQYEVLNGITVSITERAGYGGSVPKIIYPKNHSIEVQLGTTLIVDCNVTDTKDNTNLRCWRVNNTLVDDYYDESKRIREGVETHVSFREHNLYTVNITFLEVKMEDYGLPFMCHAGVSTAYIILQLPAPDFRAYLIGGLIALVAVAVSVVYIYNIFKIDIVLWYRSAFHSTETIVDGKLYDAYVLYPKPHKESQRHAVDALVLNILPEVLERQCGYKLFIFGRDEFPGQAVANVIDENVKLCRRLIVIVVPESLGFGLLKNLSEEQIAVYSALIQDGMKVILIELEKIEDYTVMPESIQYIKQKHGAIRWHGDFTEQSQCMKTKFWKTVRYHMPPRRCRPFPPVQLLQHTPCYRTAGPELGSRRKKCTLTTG

Structure (SMILES) | tested on | assay | test system | conditions | endpoint | value
NCc1cn([C@@H]2[C@@H](OCCn3cc(-c4cc(OCCOCCO)c(C#Cc5cc(OCCOCCO)c(C#Cc6cc(OCCOCCO)c(-c7cn(CCO[C@H]8O[C@H](CO)[C@@H](O)[C@H](O)[C@@H]8n8cc(CN)nn8)nn7)cc6OCCOCCO)cc5OCCOCCO)cc4OCCOCCO)nn3)O[C@H](CO)[C@@H](O)[C@@H]2O)nn1 | CD209 antigen (CD209, Homo sapiens, UniProt Q9NNX6) | – | – | – | Kd | 28800 nM and 38500 nM
CC(C)[C@@H]1NC(=O)[C@H](Cc2ccccc2)NC(=O)CSC[C@@H](C(N)=O)NC(=O)[C@H](CCC(=O)O)NC(=O)[C@H](CO)NC(=O)[C@H](Cc2c[nH]c3ccccc23)NC(=O)[C@H](C(C)C)NC(=O)[C@H](C(C)C)NC(=O)[C@H](Cc2ccc(O)cc2)NC(=O)[C@H](CC(=O)O)NC(=O)[C@H](Cc2c[nH]c3ccccc23)NC(=O)[C@H](Cc2ccc(O)cc2)NC(=O)[C@H](Cc2c[nH]c3ccc(Cl)cc23)NC(=O)[C@H](CCC(=O)O)NC1=O | Interleukin-1 receptor-like 2, D1-D2 domains (IL1RL2, Homo sapiens, UniProt Q9HB29) | SPR | – | IL-36R domains D1-D2 | Kd | 277 ± 6 nM
O=C1NC2(CC2)COc2ncc(F)cc2[C@H]2COCCN2c2ccn3ncc1c3n2 | – | – | Sprague-Dawley rat, male, epididymides | oral, 10 mg/kg/day, end of treatment, 4-week repeated-dose toxicity | epididymis weight | 1.01 ± 0.084 g
CC[C@H](C)[C@H](NC(=O)[C@H](CCC(=O)O)NC(=O)[C@H](CCCNC(=N)N)NC(=O)[C@H](C)NC(=O)[C@H](C)NC(=O)[C@H](CCC(N)=O)NC(=O)[C@H](CCC(=O)O)NC(=O)[C@H](CCC(=O)O)NC(C)=O)C(=O)NCC(=O)N[C@@H](C)C(=O)N[C@@H](CCC(N)=O)C(=O)N[C@@H](CC(C)C)C(=O)N[C@@H](CCCNC(=N)N)C(=O)N[C@@H](CCCNC(=N)N)C(=O)N[C@@H](CCSC)C(=O)N[C@@H](C)C(=O)N[C@@H](CC(=O)O)C(=O)N[C@@H](CC(=O)O)C(=O)N[C@@H](CC(C)C)C(=O)N[C@@H](CC(N)=O)C(=O)N[C@@H](C)C(=O)N[C@@H](CCC(N)=O)C(=O)N[C@@H](Cc1ccc(O)cc1)C(=O)N[C@@H](CCC(=O)O)C(=O)N[C@@H](CCCNC(=N)N)C(N)=O | Bcl-2-like protein 1, C-terminal truncated (BCL2L1, Homo sapiens, UniProt Q07817) | binding, ITC | – | pH 7.4, 25 °C | Kd | 3 ± 1 nM
CCCc1cc2cc(-n3nc(CCC)c4c3CC(C)(C)CC4=O)cc(N3CCC(O)CC3)c2c(=O)[nH]1 | HSP90AB1 | fluorescence polarization | – | 24 h, 4 °C, added: FITC-geldanamycin tracer | Kd | 1660 nM
O=C(N[C@@H]1c2ccccc2C[C@H]1N1CCCC1)c1ccc(-c2ccnc3[nH]ccc23)nc1 | MYLK4 (Homo sapiens, UniProt Q86YV6) | binding, competition with immobilised ligand | – | – | Kd | 55 nM
CC[C@H](C)[C@H](NC(=O)[C@H](CCC(=O)O)NC(=O)[C@H](C)NC(=O)[C@H](CCCCN)NC(=O)[C@H](CC(C)C)NC(=O)[C@@H](NC(=O)[C@H](CCC(=O)O)NC(=O)[C@@H](NC(=O)[C@H](CCC(=O)O)NC(=O)[C@H](CC(=O)O)NC(=O)[C@H](C)NC(=O)[C@@H](NC(=O)[C@@H](NC(=O)[C@H](C)NC(=O)[C@H](C)NC(C)=O)C(C)C)[C@@H](C)O)[C@@H](C)O)C(C)C)C(=O)N[C@H]1CSCc2cccc(c2)CSC[C@@H](C(=O)N[C@@H](CCC(N)=O)C(=O)N[C@H](C(=O)N[C@@H](CCC(N)=O)C(=O)N[C@@H](CCC(=O)O)C(=O)N[C@@H](CCC(=O)O)C(=O)N[C@@H](CC(=O)O)C(=O)N2CCC[C@H]2C(=O)N[C@@H](CC(N)=O)C(=O)NCCC(=O)N[C@@H](CCCCNC(=O)CCCC[C@@H]2SC[C@@H]3NC(=O)N[C@@H]32)C(N)=O)C(C)C)NC(=O)[C@H](C(C)C)NC(=O)[C@H](C)NC(=O)[C@H](CCCCN)NC1=O | MYC (Homo sapiens, UniProt P01106) | binding, BLI | – | – | Kd | 120 nM
CC[C@@H](C)[C@@H](NC(=O)[C@@H](CCC(N)=O)NC(=O)[C@H](NC(=O)[C@H]1CCCN1C(=O)[C@H](NC(=O)[C@@H](CO)NC(=O)[C@@H](Cc1ccccc1)NC(=O)[C@H]1CCCN1C(=O)[C@@H](CCC(N)=O)NC(=O)[C@H](N)CCSC)[C@H](C)CC)C(C)C)C(=O)N[C@@H](C(=O)N[C@H](CC(C)C)C(=O)N[C@H](CCC(N)=O)C(=O)NCC(=O)N[C@H](CO)C(=O)N[C@H](CCCNC(=N)N)C(=O)N[C@H](CCCNC(=N)N)C(=O)N[C@H](CCCNC(=N)N)C(=O)N[C@H](CCC(N)=O)C(=O)NCC(=O)N[C@H](CCCNC(=N)N)C(N)=O)[C@H](C)O | Kcnma1 (Mus musculus, UniProt Q08460) | BK current, blocker, inside-out patch | Xenopus oocytes | pH 7.0, 22 °C, 0 mV, added: 40 µM peptide | Kd | 16700 nM
CSCC[C@H](NC=O)C(=O)N[C@@H](CCCNC(=N)N)C(=O)N[C@H](C(=O)NCC(=O)N[C@@H](CC(N)=O)C(=O)N[C@@H](C)C(=O)N[C@@H](CC(N)=O)C(=O)NCC(=O)NCC(=O)N[C@@H](CCCCNC(=S)Nc1ccc2c(c1)C(=O)OC21c2ccc(O)cc2Oc2cc(O)ccc21)C(=O)O)[C@@H](C)O | Uncharacterized protein YejA (yejA, Escherichia coli, UniProt P33913, T471A) | binding, fluorescence polarisation | – | YejA variant T453A | Kd | 4780 ± 330 nM
CC[C@H](C)[C@H](NC(=O)c1ccc2c(c1)C(=O)OC21c2ccc(N(C)C)cc2Oc2cc(N(C)C)ccc21)C(=O)N[C@H](C(=O)N[C@@H](C)C(=O)N[C@@H](CC(C)C)C(=O)N[C@H](C(=O)N[C@@H](CO)C(=O)N[C@@H](CC(N)=O)C(=O)N[C@@H](CCC(N)=O)C(=O)N[C@@H](CCC(=O)O)C(=O)N[C@@H](Cc1ccc(OP(=O)(O)O)cc1)C(=O)N[C@@H](CC(C)C)C(=O)N[C@@H](CC(=O)O)C(=O)N[C@@H](CC(C)C)C(=O)N[C@@H](CO)C(=O)N[C@@H](CCSC)C(=O)N1CCC[C@H]1C(=O)N[C@@H](CC(C)C)C(=O)N[C@@H](CC(=O)O)C(=O)O)[C@@H](C)O)C(C)C | 1-phosphatidylinositol 4,5-bisphosphate phosphodiesterase gamma-1, SH2 domains (PLCG1, Homo sapiens, UniProt P19174) | binding | – | – | Kd | 1830 nM
C=C1NC(=O)[C@H](CCSC)NC(=O)[C@H](Cc2ccc(O)cc2)NC(=O)[C@H](CC(N)=O)NC(=O)CNC(=O)CNC(=O)[C@H](CC(N)=O)NC(=O)[C@H](Cc2c[nH]cn2)NC(=O)[C@H](CCC(=O)O)NC(=O)[C@H](Cc2ccc(O)cc2)NC(=O)[C@H](CO)NC(=O)[C@H](Cc2c[nH]c3ccccc23)NC(=O)[C@H](Cc2c[nH]c3ccccc23)NC(=O)c2ccc(-c3nc(C(=O)OC)cs3)nc2-c2csc1n2 | TNIK | binding, SPR | – | – | Kd | 58 nM
CC1(C)C(NC(=O)C(=NOC2(C(=O)O)CC2)c2csc(N)n2)C(=O)N1OS(=O)(=O)O (centres unmarked) | blaUOE-1 (Escherichia coli, UniProt Q9EXV5) | binding, surface plasmon resonance | – | – | Kd | 54000 nM
C=C1NC(=O)[C@H](CCSC)NC(=O)[C@H](Cc2ccc(O)cc2)NC(=O)[C@H](Cc2c[nH]cn2)NC(=O)CNC(=O)[C@H](CCC(N)=O)NC(=O)[C@H](CC(N)=O)NC(=O)[C@H](Cc2c[nH]cn2)NC(=O)[C@H]([C@@H](C)O)NC(=O)[C@H](CCC(N)=O)NC(=O)[C@H](CO)NC(=O)[C@H](Cc2c[nH]c3ccccc23)NC(=O)[C@H](Cc2c[nH]c3ccccc23)NC(=O)c2ccc(-c3nc(C(=O)OC)cs3)nc2-c2csc1n2 | TNIK | binding, SPR | – | – | Kd | 53 nM
CCCc1cc2cc(-n3nc(C4CCC4)c4c3CC(C)(C)CC4=O)cc(N3CCC(O)CC3)c2c(=O)[nH]1 | HSP90AB1 | fluorescence polarization | – | 24 h, 4 °C, added: FITC-geldanamycin tracer | Kd | 2800 nM
C=C(c1ccccc1)[C@H](N)P(=O)(O)O | PAL1 (Petroselinum crispum, UniProt P24481, Y110F) | ITC | – | – | Kd | 19000 nM
C[C@@]12C(=O)CC[C@H]1[C@@H]1CC=C3C[C@@H](O)CC[C@]3(C)[C@H]1C=C2c1cccnc1 | 7-alpha-hydroxycholest-4-en-3-one 12-alpha-hydroxylase (Homo sapiens, UniProt Q9UNU6, W281F) | binding, spectral titration | – | – | Kd | ~32000 nM and 32500 nM
CC(C)C[C@H](NC(=O)[C@@H](N)Cc1ccccc1)C(=O)N[C@@H](C)C(=O)N[C@H]1CSCc2cccc(n2)CSC[C@@H](C(=O)N[C@H](C(=O)NCC(=O)N[C@@H](CO)C(=O)N[C@@H](Cc2c[nH]c3ccccc23)C(=O)N[C@@H](CCCCNC(=O)CN2CCN(CC(=O)O)CCN(CC(=O)O)CCN(CC(=O)O)CC2)C(N)=O)[C@@H](C)O)NC(=O)[C@H](Cc2c[nH]cn2)NC(=O)[C@H]([C@@H](C)O)NC(=O)[C@H](CCC(=O)O)NC(=O)[C@@H]2CCCN2C1=O | EPHA2 (Homo sapiens, UniProt P29317) | binding, SPR | – | – | Kd | 116 nM
